Assay results collected from several papers.
Protocols differ between the studies behind these lines. ± marks the error that the study gave.
Cell line: HepG2

`CN(CCOc1ccc(CC2SC(=O)NC2=O)cc1)c1ccccn1` (stereo not drawn) — result for “point of departure”: 10 to 100 µM (Bayesian modelling, refers to: mitochondrial stress biomarkers).
`CCn1c(-c2ccccc2)cs/c1=N/N=C(\C)c1ccccn1` gave an inhibition of 54.2% (cell growth or viability, SRB; 100 µg/mL, 48 h).
For `Cc1[nH]c(=S)nc2c1c(=O)oc1ccc3ccccc3c12`, the inhibition was 34.6% (cell growth or viability, MTT; 10 µM).
The inhibition of `CCn1c(C)cs/c1=N/N=C(\C)c1ccccn1` is reported as 62.7% (cell growth or viability, SRB; 100 µg/mL, 48 h).
The mRNA level of `COc1ccc(-c2ccc(-c3ccc(C(=N)N)nc3)s2)cc1Cl` is reported as 0.57 ± 0.08 (real-time PCR, refers to: topoisomerase II; 0.1 µM, 8 h, unit not given; baseline: untreated).
With `CC1=C(C(=O)Nc2cccnc2)C(c2ccc3ccc4cccc5ccc2c3c45)NC(=S)N1` (stereo not drawn) the inhibition was 29.8% (cell growth or viability, MTT; 10 µM).
The inhibition of `CCn1c(C)c(/N=N/c2ccc(Cl)cc2)s/c1=N/N=C(\C)c1ccccn1` is reported as 68.8% (cell growth or viability, SRB; 100 µg/mL, 48 h).
The EC50 of `CN1CCN(c2nc3cc(C(F)(F)F)ccc3n3cccc23)CC1` is reported as 10 ± 4 µM (phospholipidosis induction, inducer, high-content imaging; 24 h, confirmation screen).
`CC(=O)C1S/C(=N/N=C(\C)c2ccccn2)NC1=O` (stereo not drawn) has an inhibition of 68.6% (cell growth or viability, SRB; 100 µg/mL, 48 h).
`CN(C)c1ccc(N=NS(=O)(=O)O)cc1` has an OCR of 137.8 ± 0.96% (Seahorse respirometry; concentration not given, 1 h, dosed at MMP IC50, added: 1 µM FCCP; baseline: basal).
`COc1cc2c(cc1OCc1ccc(F)cc1)CCN1Cc3c(c4ccccc4n3CO)CC21` (stereo not drawn) has a protein level of 0.81 ± 0.07 (Western blot, refers to: PCSK9; 5 µM, 24 h, unit not given; baseline: vehicle).
`NC(N)=NC(=O)c1nc(Cl)c(N2CCCCCC2)nc1N` gave an EC50 of 15.2 ± 7.7 µM (phospholipidosis induction, inducer, high-content imaging; 24 h, confirmation screen).
For `C/C(=N\N=C1/NC(=O)C(C)S1)c1ccccn1` (stereo not drawn), the inhibition was 68.6% (cell growth or viability, SRB; 100 µg/mL, 48 h).
With `COc1ccc2c(c1)c1c(n2CO)CN2CCc3cc(OCc4ccccc4F)c(OC)cc3C2C1` (stereo not drawn) the protein level was 0.87 ± 0.06 (Western blot, refers to: PCSK9; 5 µM, 24 h, unit not given; baseline: vehicle).
`N/C(CC(O)c1ccnc2ccccc12)=N\c1ccc(F)cc1` (stereo not drawn) gave a CC50 of greater than 200 µM (cell growth or viability).
For `COc1ccc(-c2ccc(-c3ccc(C(=N)N)nc3)s2)cc1`, the mRNA level was 1.32 ± 0.14 (real-time PCR, refers to: TXNRD1; 0.1 µM, 8 h, unit not given; baseline: untreated).
`OCCN1CCN(CC/C=C2/c3ccccc3Sc3ccc(C(F)(F)F)cc32)CC1` has an EC50 of 1.4 µM (phospholipidosis induction, inducer, high-content imaging; 24 h, primary screen).
`CC1=C(C(=O)Nc2ccccc2)C(c2ccc3ccc4cccc5ccc2c3c45)NC(=S)N1` (stereo not drawn) gave an inhibition of 26.5% (cell growth or viability, MTT; 10 µM).
With `CNC(=O)c1cc(Oc2ccc(NC(=O)Nc3ccc(Cl)c(C(F)(F)F)c3)cc2)ccn1` the IC50 was 0.13 ± 0.01 µM (cell proliferation, MTT; 48 h, miR-140-3p).
For `N#CCNC(=O)c1ccc(-c2ccnc(Nc3ccc(N4CCOCC4)cc3)n2)cc1`, the EC50 was 0.65 ± 0.2 µM (hepcidin mRNA reduction, refers to: HAMP mRNA; 6 h, 50% effect level, added: BMP6 10 ng/mL).
For `CCn1c(C)c(/N=N/c2ccc(C)cc2)s/c1=N/N=C(\C)c1ccccn1`, the inhibition was 66.1% (cell growth or viability, SRB; 100 µg/mL, 48 h).
`COc1ccc2cc3[n+](cc2c1OC)CCc1cc2c(cc1-3)OCO2` gave a protein level of 0.71 (Western blot, refers to: PCSK9; 5 µM, 24 h, unit not given; baseline: vehicle).
For `CCN1C(=O)CS/C1=N/N=C(\C)c1ccccn1`, the inhibition was 65.2% (cell growth or viability, SRB; 100 µg/mL, 48 h).
With `Cc1cc(O)c2c(c1)C(=O)c1cc(O)cc(O)c1C2=O` the OCR was 248 ± 2.96% (Seahorse respirometry; concentration not given, 1 h, dosed at MMP IC50, added: 1 µM FCCP; baseline: basal).
The EC50 of `O=C1c2c(O)ccc(O)c2C(=O)c2c(NCCNCCO)ccc(NCCNCCO)c21` is reported as 0.12 µM (cell proliferation).
With `CC1=C(C(=O)Nc2ccccn2)C(c2ccc3ccc4cccc5ccc2c3c45)NC(=S)N1` (stereo not drawn) the inhibition was 22.3% (cell growth or viability, MTT; 10 µM).
With `CC(C)(C)[C@]1(O)CCN2C[C@H]3c4ccccc4CCc4cccc(c43)[C@@H]2C1` the EC50 was 6.3 µM (phospholipidosis induction, LipidTOX high-content imaging; 24 h, primary qHTS).
For `COc1cccc(COc2cc3c(cc2OC)CCN2Cc4c(c5cc(OC)ccc5n4CO)CC32)c1` (stereo not drawn), the protein level was 1.04 ± 0.16 (Western blot, refers to: PCSK9; 5 µM, 24 h, unit not given; baseline: vehicle).
`N=C(CC(O)c1cc2ccccc2c2ccccc12)NCCc1ccc(F)cc1` (stereo not drawn) has a CC50 of 5 µM (cell growth or viability).
`CC12NC(=O)NC(c3c(ccc4ccccc34)O1)C2C(=O)Nc1cccnc1` (stereo not drawn) has an inhibition of 63.5% (cell growth or viability, MTT; 10 µM).
`COc1cc2c(cc1OCc1cccc(F)c1)CCN1Cc3c(c4ccccc4n3CO)CC21` (stereo not drawn) has a protein level of 0.82 ± 0.09 (Western blot, refers to: PCSK9; 5 µM, 24 h, unit not given; baseline: vehicle).
`COc1cc(-c2ccc(-c3ccc(C(=N)N)nc3)s2)cc(OC)c1OC` has a mRNA level of 0.3 ± 0.04 (real-time PCR, refers to: CDK1; 0.1 µM, 8 h, unit not given; baseline: untreated).
`O=C(CN1CCN(c2nc3ccccc3[nH]c2=O)CC1)Nc1ccc(F)cc1` gave an IC50 of 8.4 µM (cell viability, MTT; 24 h).
`CSc1ccc2c(c1)C(N1CCN(C)CC1)Cc1ccccc1S2` (stereo not drawn) gave an EC50 of 3.5 µM (phospholipidosis induction, inducer, high-content imaging; 24 h, primary screen).
The inhibition of `CCn1c(C)c(C(C)=O)s/c1=N/N=C(\C)c1ccccn1` is reported as 66.1% (cell growth or viability, SRB; 100 µg/mL, 48 h).
For `COc1ccc2c(c1)c1c(n2CO)CN2CCc3cc(OC)c(OCc4ccccc4F)cc3C2C1` (stereo not drawn), the protein level was 1.02 ± 0.15 (Western blot, refers to: PCSK9; 5 µM, 24 h, unit not given; baseline: vehicle).
The maximal OCR of `Cl.N=C1C=CC(=C(c2ccc(N)cc2)c2ccc(N)cc2)C=C1` is reported as 104 ± 3.14% (MMP IC50, 1 h, added: FCCP 1 µM; baseline: basal OCR).
The mRNA level of `COc1cccc2c1C(=O)c1c(O)c3c(c(O)c1C2=O)C[C@@](O)(C(=O)CO)C[C@@H]3O[C@H]1C[C@H](N)[C@H](O)[C@H](C)O1` is reported as 0.31 ± 0.09 (real-time PCR, refers to: CDK1; 0.1 µM, 8 h, unit not given; baseline: untreated).
With `COc1cc2c(cc1OCc1cccc(C)c1)CCN1Cc3c(c4ccccc4n3CO)CC21` (stereo not drawn) the protein level was 0.93 (Western blot, refers to: PCSK9; 5 µM, 24 h, unit not given; baseline: vehicle).
The EC50 of `COc1cc2nc(N3CCN(C(=O)OCc4ccccc4)[C@H](C(=O)NC(C)(C)C)C3)nc(N)c2cc1OC` is reported as 4 ± 1.7 µM (phospholipidosis induction, inducer, high-content imaging; 24 h, confirmation screen).
`COc1ccc2c(c1)c1c(n2CO)CN2CCc3cc(OCc4cccc(C)c4)c(OC)cc3C2C1` (stereo not drawn) has a protein level of 0.94 ± 0.03 (Western blot, refers to: PCSK9; 5 µM, 24 h, unit not given; baseline: vehicle).
The maximal OCR of `CC1=C(/C=C/C(C)=C/C=C/C(C)=C/C(=O)Nc2ccc(O)cc2)C(C)(C)CCC1` is reported as 79 ± 2.11% (MMP IC50, 1 h, added: FCCP 1 µM; baseline: basal OCR).

Repeated from above:
`COc1cc2c(cc1OCc1cccc(F)c1)CCN1Cc3c(c4ccccc4n3CO)CC21` (stereo not drawn) has a protein level of 0.82 ± 0.09 (Western blot, refers to: PCSK9; 5 µM, 24 h, unit not given; baseline: vehicle).
`COc1cc(-c2ccc(-c3ccc(C(=N)N)nc3)s2)cc(OC)c1OC` has a mRNA level of 0.3 ± 0.04 (real-time PCR, refers to: CDK1; 0.1 µM, 8 h, unit not given; baseline: untreated).
`O=C(CN1CCN(c2nc3ccccc3[nH]c2=O)CC1)Nc1ccc(F)cc1` gave an IC50 of 8.4 µM (cell viability, MTT; 24 h).
`CSc1ccc2c(c1)C(N1CCN(C)CC1)Cc1ccccc1S2` (stereo not drawn) gave an EC50 of 3.5 µM (phospholipidosis induction, inducer, high-content imaging; 24 h, primary screen).
The inhibition of `CCn1c(C)c(C(C)=O)s/c1=N/N=C(\C)c1ccccn1` is reported as 66.1% (cell growth or viability, SRB; 100 µg/mL, 48 h).
For `COc1ccc2c(c1)c1c(n2CO)CN2CCc3cc(OC)c(OCc4ccccc4F)cc3C2C1` (stereo not drawn), the protein level was 1.02 ± 0.15 (Western blot, refers to: PCSK9; 5 µM, 24 h, unit not given; baseline: vehicle).
The maximal OCR of `Cl.N=C1C=CC(=C(c2ccc(N)cc2)c2ccc(N)cc2)C=C1` is reported as 104 ± 3.14% (MMP IC50, 1 h, added: FCCP 1 µM; baseline: basal OCR).
